Experimental data from different studies.
Protocols differ between the studies behind these lines. ± gives the spread as reported.

Structure (SMILES)	host	medium	route	dose	time	together with	tissue uptake
N=C(N)NCCC[C@@H]1NC(=O)[C@H](CCCCNC(=O)CNC(=O)CNC(=O)CNC(=O)c2ccc(NN=Cc3ccccc3S(=O)(=O)O)nc2)NC(=O)[C@@H](Cc2ccccc2)NC(=O)[C@H](CC(=O)O)NC(=O)CNC1=O [technetium-99m labelled]	athymic nu/nu mouse, female, U-87 MG glioma xenograft	tumour	intravenous	2 µCi	60 min	–	5.62 ± 1.12 %ID/g
CCCC[C@H](NC(=O)CNC(=O)CNC(=O)c1ccc(NN)nc1)C(=O)N[C@H]1CC(=O)NCCCC[C@@H](C(N)=O)NC(=O)[C@H](Cc2c[nH]c3ccccc23)NC(=O)[C@H](CCCNC(=N)N)NC(=O)[C@@H](Cc2ccccc2)NC(=O)[C@H](Cc2c[nH]cn2)NC1=O [technetium-99m labelled]	C57 mouse, B16/F1 melanoma-bearing	lung	intravenous	–	0.5 h	–	2.73 ± 0.76 %ID/g
N=C(N)NCCC[C@@H]1NC(=O)[C@H](CCCCNC(=O)CCOCCOCCOCCOCCNC(=O)CC[C@H](NC(=O)CCOCCOCCOCCOCCNC(=O)[C@H](CCCCNC(=O)c2ccc(NN)nc2)NC(=O)c2ccc(NN)nc2)C(=O)NCCOCCOCCOCCOCCC(=O)NCCCC[C@@H]2NC(=O)[C@@H](Cc3ccccc3)NC(=O)[C@H](CC(=O)O)NC(=O)CNC(=O)[C@H](CCCNC(=N)N)NC2=O)NC(=O)[C@@H](Cc2ccccc2)NC(=O)[C@H](CC(=O)O)NC(=O)CNC1=O [technetium-99m labelled]	athymic nude mouse, female, U-87 MG xenograft	intestine	intravenous	0.1 MBq	1 h	–	10.3 ± 5.01 %ID/g
N=C(N)NCCC[C@@H]1NC(=O)[C@H](CCCCNC(=O)CNC(=O)CNC(=O)CNC(=O)CC[C@H](NC(=O)c2ccc(NN=Cc3ccccc3S(=O)(=O)O)nc2)C(=O)NCC(=O)NCC(=O)NCC(=O)NCCCC[C@@H]2NC(=O)[C@@H](Cc3ccccc3)NC(=O)[C@H](CC(=O)O)NC(=O)CNC(=O)[C@H](CCCNC(=N)N)NC2=O)NC(=O)[C@@H](Cc2ccccc2)NC(=O)[C@H](CC(=O)O)NC(=O)CNC1=O [technetium-99m labelled]	athymic nu/nu mouse, female, MDA-MB-435 xenograft	kidney	intravenous	–	30 min	–	20.9 ± 3.49 %ID/g
CCCC[C@H](NC(=O)CNC(=O)[C@H](CO)NC(=O)CNC(=O)c1ccc(NN)nc1)C(=O)N[C@H]1CC(=O)NCCCC[C@@H](C(N)=O)NC(=O)[C@H](Cc2c[nH]c3ccccc23)NC(=O)[C@H](CCCNC(=N)N)NC(=O)[C@@H](Cc2ccccc2)NC(=O)[C@H](Cc2c[nH]cn2)NC1=O [technetium-99m labelled]	C57 mouse, B16/F1 melanoma	blood	intravenous	0.037 MBq	2 h	–	0.08 ± 0.06 %ID/g
CSCC[C@H](NC(=O)[C@H](CC(C)C)NC(=O)[C@H](Cc1c[nH]cn1)NC(=O)CNC(=O)[C@@H](NC(=O)[C@H](C)NC(=O)[C@H](Cc1c[nH]c2ccccc12)NC(=O)[C@H](CCC(N)=O)NC(=O)CCCCCNC(=O)CNC(=O)CNC(=O)CNC(=O)CSC(C)=O)C(C)C)C(N)=O [technetium-99m labelled]	nude mouse, PC-3 xenograft	heart	–	–	30 min	–	0.34 ± 0.08 %ID/g
N=C(N)NCCC[C@@H]1NC(=O)[C@H](CC(=O)NC23CNCCNCC(N)(CNCCNC2)CNCCNC3)NC(=O)[C@@H](Cc2ccccc2)NC(=O)[C@H](CC(=O)O)NC(=O)CNC1=O [copper-64 labelled]	Nu/Nu mouse, male, tumour-bearing	muscle	intravenous	10 µCi	2 h	–	0.19 ± 0.03 %ID/g
CSCC[C@H](NC(=O)[C@H](CC(C)C)NC(=O)[C@H](Cc1c[nH]cn1)NC(=O)CNC(=O)[C@@H](NC(=O)[C@H](C)NC(=O)[C@H](Cc1c[nH]c2ccccc12)NC(=O)[C@H](CCC(N)=O)NC(=O)[C@H](CC(N)=O)NC(=O)CNC(=O)[C@H](Cc1ccc(O)cc1)NC(=O)[C@H](CCCNC(=N)N)NC(=O)[C@H](CCC(N)=O)NC(=O)[C@@H]1CCCN1C(=O)CN1CCN(CC(=O)O)CCN(CC(=O)O)CCN(CC(=O)O)CC1)C(C)C)C(N)=O [indium-111 labelled]	Swiss nu/nu mouse, male, PC-3 tumour xenograft	pancreas	intravenous	10 pmol	4 h	–	8.9 ± 2.1 %ID/g
CCCC[C@H](NC(=O)CCCCCCCNC(=O)c1ccc(NN)nc1)C(=O)N[C@H]1CC(=O)NCCCC[C@@H](C(N)=O)NC(=O)[C@H](Cc2c[nH]c3ccccc23)NC(=O)[C@H](CCCNC(=N)N)NC(=O)[C@@H](Cc2ccccc2)NC(=O)[C@H](Cc2c[nH]cn2)NC1=O [technetium-99m labelled]	C57 mouse, B16/F1 melanoma	spleen	–	–	2 h	L-lysine 12 mg co-injected	0.22 ± 0.09 %ID/g

For quick reference, copied from above:
Structure (SMILES)	host	medium	route	dose	time	together with	tissue uptake
N=C(N)NCCC[C@@H]1NC(=O)[C@H](CCCCNC(=O)CNC(=O)CNC(=O)CNC(=O)c2ccc(NN=Cc3ccccc3S(=O)(=O)O)nc2)NC(=O)[C@@H](Cc2ccccc2)NC(=O)[C@H](CC(=O)O)NC(=O)CNC1=O [technetium-99m labelled]	athymic nu/nu mouse, female, U-87 MG glioma xenograft	tumour	intravenous	2 µCi	60 min	–	5.62 ± 1.12 %ID/g
